Measurements gathered from unrelated publications.
Parts stem from different laboratories: compare values within a part only. Changes are numbered by the printed parent chain.

Set 1 — technique: protein-binding microarray; form: double-stranded DNA, one strand shown; medium: in vitro; concentration: 2540 nM top; setting: 60-bp whole probe; together with: salmon DNA 0.4 mg/ml; reference: random background probes; direction: higher = stronger binding; shared flanks, not repeated: GCCTAGCAC … GTCTTGATTCGCTTGACGCTGCTG
Target: Interferon regulatory factor 3, full length, phosphomimetic (IRF3, Homo sapiens, UniProt Q14653, residues 1-427, S386D/S396D/S398D/S402D/T404D/S405D)
Construct (chain): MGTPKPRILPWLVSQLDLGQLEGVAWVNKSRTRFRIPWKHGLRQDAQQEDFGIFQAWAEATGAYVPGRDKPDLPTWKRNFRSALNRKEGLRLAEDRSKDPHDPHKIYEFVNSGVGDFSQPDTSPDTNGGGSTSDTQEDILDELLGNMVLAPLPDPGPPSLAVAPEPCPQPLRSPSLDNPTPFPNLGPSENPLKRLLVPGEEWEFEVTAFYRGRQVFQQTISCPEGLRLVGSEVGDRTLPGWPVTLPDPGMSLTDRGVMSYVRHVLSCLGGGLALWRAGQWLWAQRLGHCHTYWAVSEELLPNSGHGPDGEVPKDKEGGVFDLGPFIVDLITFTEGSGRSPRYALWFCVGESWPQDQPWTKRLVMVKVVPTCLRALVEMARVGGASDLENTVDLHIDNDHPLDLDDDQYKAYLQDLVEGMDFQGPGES
Strand | fitted relative affinity
TCATATATCTGAACCGCACTGTGCTAG | 0.688 z-score
GACGAACTGAGTCTCGAGGCGTGCTAG | -0.454 z-score
TTCGATATCAGTTTCGATTAGTGCTAG | 4.87 z-score
GACGATATCGACACTGGGGACGTGCTA | -0.0707 z-score
GACGGTTGCCTACTGCTGACGTGCTAG | 1.62 z-score
GACGGACTGGTGTATCGGGACGTGCTA | -0.325 z-score
GACGGTTGCGACACTGGGGACGTGCTA | 0.209 z-score
TTAGGTATTCTTCTCCTTTAGTGCTAG | 1.21 z-score

Set 2 — target: CCND1, cyclin fold, Cln2 fusion (human); technique: yeast growth competition, sequencing; medium: yeast; setting: weak parent motif; reference: not given; direction: higher = stronger binding; starting sequence: viral docking peptide; PTARRRLLHDLDT
Variant | normalised enrichment score
P1A | 0.0299
R5A | -0.301
R5K | -0.246
D12A | -0.685
L8A | -0.631
T13A | -0.286
R4A | -0.678
R5K L8F | 0.0634

Set 3 — technique: aptamer microarray, sandwich; form: DNA with 2'F-ANA; medium: in vitro; concentration: 200 nM; together with: Cy3 exosite-II aptamer, 400 nM; direction: higher = stronger binding; strand: GGTTGGTGTGGTTGG
Target: Prothrombin, mature alpha-thrombin (F2, Homo sapiens, UniProt P00734)
Setting: whole 15-mer aptamer, many near background
Modification | mean fluorescence intensity [a.u.]
2'F-ANA at 1 4 5 6 7 8 9 10 11 13 14 | 50.7
2'F-ANA at 2 5 7 11 12 14 | 183
2'F-ANA at 4 5 6 8 10 11 13 14 15 | 50.5
2'F-ANA at 6 7 8 14 | 206
2'F-ANA at 1 2 3 6 9 11 12 15 | 299
2'F-ANA at 2 5 6 8 9 10 12 13 14 15 | 46.2
2'F-ANA at 2 3 4 7 8 9 15 | 759
2'F-ANA at 1 3 5 7 8 9 10 12 15 | 141

Set 4 — technique: RNA Bind-n-Seq; form: RNA; medium: in vitro; concentration: 20 nM; setting: 6-mer, flanks averaged, single round; together with: 150 mM KCl; reference: input library; direction: higher = stronger binding
Target: TAR DNA-binding protein 43, full length, His tag (TARDBP, Homo sapiens, UniProt Q13148, residues 1-414)
Strand | 6-mer enrichment (R)
CUCUCU | 0.563
CGCAAG | 0.929
UGCACU | 0.63
AAUAGU | 0.691
CCAUCG | 0.668
UACGGG | 2.07
UUGCUC | 0.583
ACAUAU | 0.603

Excerpt of the above (set 2):
Variant | normalised enrichment score
D12A | -0.685
L8A | -0.631
T13A | -0.286
R4A | -0.678
R5K L8F | 0.0634
